Assay results from different studies.
Lines come from different studies, so protocols differ.
Technique: steady-state kinetics
B1: SUOX P184A (Homo sapiens, UniProt P51687); chain ESTHIYTKEEVSSHTSPETGIWVTLGSEVFDVTEFVDLHPGGPSKLMLAAGGPLEPFWALYAVHNQSHVRELLAQYKIGELNPEDKVAPTVETSDPYADDPVRHAALKVNSQRPFNAEPPPELLTENYITPNPIFFTRNHLPVPNLDPDTYRLHVVGAPGGQSLSLSLDDLHNFPRYEITVTLQCAGNRRSEMTQVKEVKGLEWRTGAISTARWAGARLCDVLAQAGHQLCETEAHVCFEGLDSDPTGTAYGASIPLARAMDPEAEVLLAYEMNGQPLPRDHGFPVRVVVPGVVGARHVKWLGRVSVQPEESYSHWQRRDYKGFSPSVDWETVDFDSAPSIQELPVQSAITEPRDGETVESGEVTIKGYAWSGGGRAVIRVDVSLDGGLTWQVAKLDGEEQRPRKAWAWRLWQLKAPVPAGQKELNIVCKAVDDGYNVQPDTVAPIWNLRGVLSNAWHRVHVYVSP
B2: CPT1 (Solanum lycopersicum, UniProt C1K5M2); chain SLNLQTEKLCYEDNDNDLDEELMPKHIALIMDGNRRWAKDKGLEVYEGHKHIIPKLKEICDISSKLGIQIITAFAFSTENWKRSKEEVDFLLQMFEEIYDEFSRSGVRVSIIGCKSDLPMTLQKCIALTEETTKGNKGLHLVIALNYGGYYDILQATKSIVNKAMNGLLDVEDINKNLFDQELESKCPNPDLLIRTGGEQRVSNFLLWQLAYTEFYFTNTLFPDFGEEDLKEAIMNFQQRHRRFGGHTY
B3: protein F222A (Planktothrix agardhii, UniProt F5B6Z0); chain MIVNVIQKDRLKEQKLQFIRNHQQAFDVEPIYPLPLFEDFVTSIEGDCSLEASCKIESDKLIASRFLLFFEDKTQEWQKYLHQSLTFFGLVENRVGVKINYSLLQQFLGSSFDFSKVTVLSAGIDLRNNLAESSLKMHIRIKDYPEKLDKAFALSDGAADGNYLKDFVNLIGFDFYFNGKSEIEIYAEVQEDDFFKPEINNLVWQHFPKTALQPLKASSLFATGLSKANNNPVLYYHLKNRQDLTNYFKLNDTAQRVHSFYQHQDILPYMWVGTAQKELEKTRIENIRLYYYKSFKMESN
B4: UGT1A9 (Homo sapiens, UniProt O60656); chain GKLLVVPMDGSHWFTMRSVVEKLILRGHEVVVVMPEVSWQLGRSLNCTVKTYSTSYTLEDLDREFKAFAHAQWKAQVRSIYSLLMGSYNDIFDLFFSNCRSLFKDKKLVEYLKESSFDAVFLDPFDNCGLIVAKYFSLPSVVFARGILCHYLEEGAQCPAPLSYVPRILLGFSDAMTFKERVRNHIMHLEEHLLCHRFFKNALEIASEILQTPVTEYDLYSHTSIWLLRTDFVLDYPKPVMPNMIFIGGINCHQGKPLPMEFEAYINASGEHGIVVFSLGSMVSEIPEKKAMAIADALGKIPQTVLWRYTGTRPSNLANNTILVKWLPQNDLLGHPMTRAFITHAGSHGVYESICNGVPMVMMPLFGDQMDNAKRMETKGAGVTLNVLEMTSEDLENALKAVINDKSYKENIMRLSSLHKDRPVEPLDLAVFWVEFVMRHKGAPHLRPAAHDLTWYQYHSLDVIGFLLAVVLTVAFITFKCCAYGYRKCLGKKGRVKKAHKSKTH
B5: protein (Phaseolus vulgaris, UniProt V7CJ62); chain MSAYKDQDPRLHGIKTKIRVVPNFPKSGIMFQDITTLLLDPKAFKDTIDLFVERYKGKNISVVAGIEARGFIFGPPIALAIGAKFVPLRKPKKLPGKVISQEYILEYGRDCIEMHVGAVEPGERALVVDDLIATGGTLCAAMDLLERVGAEVVECACVIELPELKGRERLNGKPLYVLVEYMEI
B6: enzyme (Levilactobacillus brevis, UniProt Q03Q85); chain MKVTVVGCTHAGTFAIKQILAEHPDAEVTVYERNDVISFLSCGIALYLGGKVADPQGLFYSSPEELQKLGANVQMNHNVLAIDPDQKTVTVEDLTNHAQTTESYDKLVMTSGSWPIVPKIPGIDSDRVKLCKNWAHAQALIEDAKEAKRITVIGAGYIGAELAEAYSTTGHDVTLIDAMARVMPKYFDADFTDVIEQDYRDHGVQLALGETVESFTDSATGLTIKTDKNSYETDLAILCIGFRPNTDLLKGKVDMAPNGAIITDDYMRSSNPDIFAAGDSAAVHYNPTHQNAYIPLATNAVRQGILVGKNLVKPTVKYMGTQSSSGLALYDRTIVSTGLTLAAAKQQGLNAEQVIVEDNYRPEFMPSTEPVLMSLVFDPDTHRILGGALMSKYDVSQSANTLSVCIQNENTIDDLAMVDMLFQPNFDRPFNYLNILAQAAQAKVAQSVNA
B7: enzyme (Arabidopsis thaliana, UniProt Q9LQL2); chain MSCLEIYNKDTMKKKEGEEETRDGTVDYYGRPSIRSNSGQWVAGIVILLNQGLATLAFFGVGVNLVLFLTRVLQQNNADAANNVSKWTGTVYIFSLVGAFLSDSYWGRYKTCAIFQVIFVIGLSSLSLSSYMFLIRPRGCGDEVTPCGSHSMMEITMFYFSIYLIALGYGGYQPNIATLGADQFDEEHPKEGYSKIAFFSYFYLALNLGSLFSNTILGYFEDEGMWALGFWASTGSAIIGLILFLVGTPRYRYFKPTGNPLSRFCQVLVAATKKSSVEAPLRGREEMYDGDSEGKNASVNTGRRIVHTDEFKFLDKAAYITARDLDDKKQDSVNPWRLCPVTQVEEVKCILRLMPIWLCTIIYSVVFTQMASLFVEQGAAMNTSVSDFKIPPASMSSFDILSVALFIFLYRRVLEPVANRFKKNGSKGITELHRMGIGLVIAVIAMIAAGIVECYRLKYADKSCTHCDGSSSLSIFWQAPQYSLIGASEVFMYVGQLEFFNAQTPDGLKSFGSALCMMSMSMGNFVSSLLVTMVVKISTEDHMPGWIPRNLNKGHLDRFYFLLAALTSIDLVVYIACAKWYKPIQLEGKDEMQDMSDDDYDTESEEEREKDSKV
B8: enzyme (Thermoplasma acidophilum, UniProt Q9HJI4); chain MEFNLHAVSSEEKERDFDVVIVGAGAAGFSAAVYAARSGFSVAILDKAVAGGLTAEAPLVENYLGFKSIVGSELAKLFADHAANYAKIREGVEVRSIKKTQGGFDIETNDDTYHAKYVIITTGTTHKHLGVKGESEYFGKGTSYCSTCDGYLFKGKRVVTIGGGNSGAIAAISMSEYVKNVTIIEYMPKYMCENAYVQEIKKRNIPYIMNAQVTEIVGDGKKVTGVKYKDRTTGEEKLIETDGVFIYVGLIPQTSFLKDSGVKLDERGYIVVDSRQRTSVPGVYAAGDVTSGNFAQIASAVGDGCKAALSLYSDSISKK
B9: enzyme (Trichomonas vaginalis, UniProt A2DJ40); chain MTFELPKTMKAFAMRKIGEVGWIEKPVPECGPNDAICRPLALAPCTSDIHTVWAGAIGERHDMILGHEAVGQVVKIGSEVKNLKVGDKVLVPAVTPDWGSEAAQEGFPAHSGGMLGGWKFSNFKDGVFAEYFHVNEADANLAKLPEGLTPRDVIMCSDMMTTGFHGAELAEVKLGDIVVVIGIGPVGLMSVRGAALMGASRIFAVGSRPHCCDTAVQYGATDIINYKNGDIVEQILKATGGKGVDRVIIAGGDVHTFAQAIKMIRAGGVIGNVNYLGEGEMIDVPRVEWGVGMGHKFIHGGLTPGGALRMEKMANLIKYKKVDPTKLITHEFKGLEKVEDALMLMKDKPVDLIKPVVLIEYNDKL
B10: enzyme (Acinetobacter baumannii, UniProt D0CBC8); chain MALVLDGRALAKQIEENLLVRVEALKAKTGRTPILATILVGDDGASATYVRMKGNACRRVGMDSLKIELPQETTTEQLLAEIEKLNANPDVHGILLQHPVPAQIDERACFDAISLAKDVDGVTCLGFGRMAMGEAAYGSATPAGIMTILKENNIEIAGKHAVVVGRSAILGKPMAMMLLQANATVTICHSRTQNLPELVKQADIIVGAVGKAELIQKDWIKQGAVVVDAGFHPRDGGGVGDIQLQGIEEIASAYTPVPGGVGPMTITTLIRQTVEAAEKALG
B11: ycjR (Escherichia coli, UniProt P76044); chain MKIGTQNQAFFPENILEKFRYIKEMGFDGFEIDGKLLVNNIEEVKAAIKETGLPVTTACGGYDGWIGDFIEERRLNGLKQIERILEALAEVGGKGIVVPAAWGMFTFRLPPMTSPRSLDGDRKMVSDSLRVLEQVAARTGTVVYLEPLNRYQDHMINTLADARRYIVENDLKHVQIIGDFYHMNIEEDNLAQALHDNRDLLGHVHIADNHRYQPGSGTLDFHALFEQLRADNYQGYVVYEGRIRAEDPAQAYRDSLAWLRTC
B12: FPPS (Aedes aegypti, UniProt Q17F78); chain MLSTLIRAGSLQTMGRQFARSVETPVQMQHARFISKSSEVNSDYMTMRENQTQKVSRDYNSKLQVRLKKVSRTLSTLNNSIPEAASQTIVTKSDAREFMAVFPDLVRDLTEYCKKYDNTLAPKWFVKALQYNVPQGKKNRGLAAVLAYRMLSKSEDLTPENIRRAHYLGWVIEMFQAVFLICDDAMDGSQTRRGQPCWYKLEDVKLSGINDALMIDAAIFYVLKKQFGDEPYYSKLVETFNEIKFITTIGQSLDLRSARMDVTKYTMDLYKSIVCHKTAYYTFYLPVALAMHMTGFTDPEVFRQTKTILLEIGLFYQTQDDFLDCFGDPAVTGKIGTDIEEGKCTWLSVVAMQRASDEQKELMKQCYGSSDPEKVARVKKLYEELGLPTTYAIYEEESYNMIKTHIQQISRGLPHELFFKIMEKIYRRDC
Chain of UniProt P49419 (whole entry, looked up): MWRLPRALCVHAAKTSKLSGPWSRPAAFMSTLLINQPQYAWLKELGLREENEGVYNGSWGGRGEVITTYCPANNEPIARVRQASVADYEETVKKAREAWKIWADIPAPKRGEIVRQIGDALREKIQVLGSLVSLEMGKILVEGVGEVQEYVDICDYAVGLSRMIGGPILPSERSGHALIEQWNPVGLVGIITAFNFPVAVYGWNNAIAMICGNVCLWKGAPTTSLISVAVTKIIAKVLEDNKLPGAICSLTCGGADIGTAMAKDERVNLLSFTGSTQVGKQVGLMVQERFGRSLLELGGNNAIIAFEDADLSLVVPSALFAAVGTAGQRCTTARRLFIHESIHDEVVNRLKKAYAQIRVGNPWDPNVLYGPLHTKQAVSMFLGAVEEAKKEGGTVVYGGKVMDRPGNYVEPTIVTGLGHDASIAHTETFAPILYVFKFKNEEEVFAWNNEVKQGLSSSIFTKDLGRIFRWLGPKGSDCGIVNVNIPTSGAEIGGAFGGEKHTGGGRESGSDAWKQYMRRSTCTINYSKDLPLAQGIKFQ
Chain of UniProt P77212 (whole entry, looked up): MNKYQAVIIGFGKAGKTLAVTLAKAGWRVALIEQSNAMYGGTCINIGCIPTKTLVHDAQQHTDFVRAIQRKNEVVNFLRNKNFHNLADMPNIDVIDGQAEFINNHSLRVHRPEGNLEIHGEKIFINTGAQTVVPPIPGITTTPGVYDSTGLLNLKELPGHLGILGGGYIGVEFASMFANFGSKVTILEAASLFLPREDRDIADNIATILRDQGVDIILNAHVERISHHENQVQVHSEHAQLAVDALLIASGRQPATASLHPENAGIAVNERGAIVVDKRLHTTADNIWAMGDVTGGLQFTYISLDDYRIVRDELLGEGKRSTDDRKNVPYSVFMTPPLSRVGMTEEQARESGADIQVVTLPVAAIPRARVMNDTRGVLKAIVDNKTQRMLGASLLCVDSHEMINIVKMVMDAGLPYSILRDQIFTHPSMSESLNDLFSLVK

| Substance | substrate | setting | Km [µM] |
| --- | --- | --- | --- |
| protein (Chlorobium limicola, UniProt B3ECE3) | SSSS | pH 8, 25 °C, polysulfide mixture, together with: hercynine 0.5 mM | 18.1 |
| B1 (SUOX P184A) | O=S(O)O | pH 8, 25 °C, together with: oxidized cyt c 400 µM | 6 |
| B2 (CPT1) | C=C(C)CCO[P@@](=O)(O)OP(=O)(O)O |  | 273 |
| B3 (protein F222A) | CC(C)=CCC/C(C)=C/COP(=O)(O)OP(=O)(O)O | together with: tri-Tyr peptide acceptor | 190 |
| B4 (UGT1A9) | Cc1cc(=O)oc2cc(O)ccc12 | pH 7.4, 37 °C | 12 |
| B5 (protein) | O=P(O)(O)OC[C@H]1O[C@H](OP(=O)(O)OP(=O)(O)O)[C@H](O)[C@@H]1O | pH 7.5, 37 °C, MgCl2 5 mM, together with: adenine 1 mM | 230 |
| B6 (enzyme) | NC(=O)C1=CN([C@@H]2O[C@H](COP(=O)(O)OP(=O)(O)OC[C@H]3O[C@@H](n4cnc5c(N)ncnc54)[C@H](O)[C@@H]3O)[C@@H](O)[C@H]2O)C=CC1 | pH 7.5, 37 °C | 69 |
| B7 (enzyme) | O=C(O)Cc1c[nH]c2ccccc12 | pH 5.8, 25 °C, not purified | 14 |
| B8 (enzyme) | NC(=O)C1=CN([C@@H]2O[C@H](COP(=O)(O)OP(=O)(O)OC[C@H]3O[C@@H](n4cnc5c(N)ncnc54)[C@H](O)[C@@H]3O)[C@@H](O)[C@H]2O)C=CC1 | pH 7, 60 °C, apparent | 3.12 |
| B9 (enzyme) | NC(=O)C1=CN([C@@H]2O[C@H](COP(=O)(O)OP(=O)(O)OC[C@H]3O[C@@H](n4cnc5c(N)ncnc54)[C@H](OP(=O)(O)O)[C@@H]3O)[C@@H](O)[C@H]2O)C=CC1 | pH 6.25, 37 °C, cofactor varied | 34.2 |
| AphC (Rhodococcus jostii, UniProt Q0S9X1) | Oc1ccc(-c2ccccc2)cc1O | pH 8, 25 °C, apparent, together with: O2 | 7.4 |
| B10 (enzyme) | Nc1nc2c(c(=O)[nH]1)[N+]1=CN(c3ccc(C(=O)N[C@@H](CCC(=O)O)C(=O)[O-])cc3)C[C@H]1CN2 | pH 7.3, 27 °C | 40.3 |
| ALDH7A1 (Homo sapiens, UniProt P49419) | N[C@@H](CCCC=O)C(=O)O | pH 8, together with: NAD+ 2.5 mM, pyrophosphate 50 mM | 517 |
| protein (UniProt M4ZR24) | O=c1ccn([C@H]2C[C@H](O)[C@@H](CO)O2)c(=O)[nH]1 | phosphorolysis, single substrate, together with: phosphate | 1800 |
| rclA (Escherichia coli, UniProt P77212) | N#CSO | pH 7.4, apparent | 2 |
| B11 (ycjR) | CO[C@H]1O[C@H](CO)[C@@H](O)C(=O)[C@H]1O | pH 8, 30 °C, together with: MnCl2 0.5 mM, NADH 0.3 mM | 37000 |
| B12 (FPPS) | CC(C)=CCOP(=O)(O)OP(=O)(O)O | pH 7.5, 37 °C, together with: IPP 100 µM, Mg2+ 5 mM | 54.8 |
